Measured values gathered from unrelated publications.
Each numbered part is a random draw from the data of one study; scales do not carry over between parts.

Set 1
Target: Sal-like protein 4, full length isoform B (SALL4, Homo sapiens, UniProt Q9UJQ4-2, residues 1-616)
Technique: universal PBM
Form: double-stranded DNA, one strand shown
Matrix: in vitro
Tested at: not given
Notes: 8-mer, flanks averaged, mean of replicates
Reading: higher = stronger binding
With `CTGTGTTC` the E-score was 0.00226.
With `CCCTGCAC` the E-score was -0.235.
The E-score of `ACAAGGTC` is reported as -0.0634.
The E-score of `CCTACAGG` is reported as -0.274.
With `ATTTCCGG` the E-score was -0.0302.
`CGGGGGCC` has an E-score of -0.428.
`CAGCCAGG` gave an E-score of -0.255.
The E-score of `ACTTGCCT` is reported as -0.0656.
For `AACGGCAT`, the E-score was 0.143.
`AAATCAAG` gave an E-score of 0.127.
For `AACACAGA`, the E-score was 0.0588.
`CAGAGGCA` has an E-score of -0.0394.
For `ACATGTTG`, the E-score was 0.205.
`ACTACTCC` has an E-score of -0.029.
The E-score of `ACGCCGGC` is reported as -0.326.
`AACAGAGC` has an E-score of -0.158.
`CCGGGACA` gave an E-score of -0.266.
`ACCCCGCA` gave an E-score of -0.179.
For `GGGGTGAC`, the E-score was -0.0919.
`CTGAGCCA` gave an E-score of -0.252.
`GGCTAACC` gave an E-score of -0.162.
`GAACGACA` gave an E-score of -0.0833.
The E-score of `CGCCCGCG` is reported as -0.37.
For `ACTGTCTA`, the E-score was 0.00903.

Set 2
Target: RNA binding protein fox-1 homolog 2, RRM domain, GST-SBP tag (RBFOX2, Homo sapiens, UniProt O43251-10, residues 100-194)
Technique: RNA Bind-n-Seq
Form: RNA
Matrix: in vitro
Tested at: 365 nM
Notes: natural RNA segment, single round, ends assumed
Relative to: no-protein control
Reading: higher = stronger binding
All sequences stand within: GGGAGUUCUACAGUCCGACGAUC … UGGAAUUCUCGGGUGCCAA
For `CCCCAGCAGGCUGCGUGUUUAAGAAUUUCAUUGUUUAACUGGCUGGUGUGAGAAGUCUUCCGUUAGCAUAGAGUGGAAGGAGUACUAUUGUUUGGUUGGGUUUUUGUUUG`, “RBNS enrichment (R)” read 1.52.
For `CAUCUUGCCUACCAUUGCAUGAAACAUUGGGGUUUCUUCAAAAUGUGUGUGUCAUACUUCUUUUGGGAGGGGGUUGUUUUCUUCUUUUAUGAAACUCCUACUGGAGCUCA`, “RBNS enrichment (R)” read 1.68.
Under “RBNS enrichment (R)”, `CACUCCCAGCGAUGCUACCCAGAACCCCAACGGCAUGAAUCCUGCACAGUGCCGGGCAGUGCCAGACUCCAAAGGGCUCGCUGUGGGGACAGCCCCGCCAUGGCCACAGA` is recorded as 0.805.
For `AUAUAAUAUCUCAUUUAAUAAGUUUAAUACAUACAAAGAUAAUCUAUAUAUUUUACCAAUUUAAUGUGAAUUUUAAAAAAUCCCUAUGCUAUUUAAAAGAAAGAAAAUGU`, “RBNS enrichment (R)” read 0.875.
Under “RBNS enrichment (R)”, `GAUGCCCCCUCCCAAGUCCACCAAUGUACCACGUUGCUGACACAGCCUUCAUUUUUAACUCAAAUUGAUGCUCAGUAAAGGUCAAUGACAAUUUGUUCAAGGAAGUUCAU` is recorded as 0.515.
`AAGGUCUCUGAUCACACAGAAGCAGCCCUGCCCAGCCUGGUCAUUUGCUGUCCGCUUUUCUCUGUGACCACAGCAGCCCUGAACAACCAGUAUGUGUCUUCUUCUCCAGA` — result for “RBNS enrichment (R)”: 0.423.
`AGUUGUUUGGUAAGGUUUGGGGUGUUUUUUGUUUUGUUUUGUUUUAAGUUUCCAAACAACCAAACUAAGAAAAAUGCUGGAUGCUUUUAGAAUACAAAACUUACUCAAGU` — result for “RBNS enrichment (R)”: 2.45.
Under “RBNS enrichment (R)”, `GGUGAGGAAGGGCAUCUUCCUGACUCCUCUGCCCAGUGCUGGAAGGAGCAUGCCUGGGUUAGUGGGCCAGGGGCCAGGCAGCUGGGGGCCUUUGGGGACCAGAAGGGGAG` is recorded as 3.48.

Set 3
Target: Centromere-binding protein 1, full length, N-terminal tag (CBF1, Saccharomyces cerevisiae, UniProt P17106, residues 1-351)
Sequence of UniProt P17106 (whole entry, looked up): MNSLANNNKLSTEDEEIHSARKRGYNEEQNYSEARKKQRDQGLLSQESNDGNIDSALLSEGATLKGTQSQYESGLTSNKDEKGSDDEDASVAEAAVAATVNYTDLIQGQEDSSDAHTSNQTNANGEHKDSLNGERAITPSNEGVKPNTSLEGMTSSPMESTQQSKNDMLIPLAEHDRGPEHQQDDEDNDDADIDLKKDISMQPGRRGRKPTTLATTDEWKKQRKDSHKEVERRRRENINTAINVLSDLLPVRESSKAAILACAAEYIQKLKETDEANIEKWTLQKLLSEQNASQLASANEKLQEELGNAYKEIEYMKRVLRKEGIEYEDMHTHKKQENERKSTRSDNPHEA
Technique: protein-binding microarray
Form: double-stranded DNA, one strand shown
Matrix: in vitro
Tested at: 0.8 µM
Notes: whole 60-bp probe, no competitor
Reading: higher = stronger binding
All sequences stand within: … GTCTTGATTCGCTTGACGCTGCTG
For `GAAGGATAAATGACGTGGGTGATCCACTGTCAATAG`, the fluorescence intensity was 507 a.u.
`TGTACGAAGCTATTGCGTGCTGATATAGTAGTTAGG` gave a fluorescence intensity of 544 a.u.
`CTATAATTTACACATCATGTACTTTTCTGCATCTTC` gave a fluorescence intensity of 548 a.u.
The fluorescence intensity of `CTATGAGCTCACTGTGACGTCGATGCATGCGCGTTC` is reported as 508 a.u.
With `TGTACGAAGCTATATCTGATGATTATAGTAGTTAGG` the fluorescence intensity was 517 a.u.
The fluorescence intensity of `GAAGAGCACACACGTGATGTGTCGTGAACTGTGTAG` is reported as 11300 a.u.
With `GAAAGGTATAGGCGTGATGCCATGGGAGGGGCATAG` the fluorescence intensity was 667 a.u.
`CTAAAACAACAAAGCCATGTGATATCAGTCATTTTC` has a fluorescence intensity of 1230 a.u.
With `GAACGACGATTTCCTCACGAGATGGGATGGTAATAG` the fluorescence intensity was 604 a.u.
With `CTATCTCTCAGCCGCCATCACTTCCACACAGGCTTC` the fluorescence intensity was 524 a.u.
`GAAAAAATGATACTACATGTGCATGAAGTATTATAG` gave a fluorescence intensity of 608 a.u.
The fluorescence intensity of `CTAACCACATAATTCCACGTTGGCGGCATCACTTTC` is reported as 535 a.u.
The fluorescence intensity of `GAACTTTAAAATTCAAACGTGGCGTTCTTTTTTTAG` is reported as 520 a.u.
With `GAATCTACCAAGGTGAACGTGTTAACTGTAAAGTAG` the fluorescence intensity was 593 a.u.
`GAACGTATAAAAGCACACATGACATAACCGAACTAG` has a fluorescence intensity of 1180 a.u.
`CTATTGATAATTTGGCATGTGCGATCTCTTCGATTC` has a fluorescence intensity of 685 a.u.
`CTACTGTTTTAGAATCGCATCAGGTGTTTACCATTC` has a fluorescence intensity of 1600 a.u.
`GAATAACGACCAGATCATGTCAAACCTACGGTTTAG` has a fluorescence intensity of 494 a.u.
For `CTAAGTTAGTTCTGCCACGCCATTTTAAGTCCATTC`, the fluorescence intensity was 559 a.u.

Set 4
Target: TAR DNA-binding protein 43, full length, His tag (TARDBP, Homo sapiens, UniProt Q13148, residues 1-414)
Technique: RNA Bind-n-Seq
Form: RNA
Matrix: in vitro
Tested at: 20 nM
Notes: 6-mer, flanks averaged, single round
With: 150 mM KCl
Relative to: input library
Reading: higher = stronger binding
For `CUGGGG`, “6-mer enrichment (R)” read 3.75.
`CUAGAA` — result for “6-mer enrichment (R)”: 0.691.
For `AAAUCU`, “6-mer enrichment (R)” read 0.587.
`CCACCA` — result for “6-mer enrichment (R)”: 0.669.
`CGCCCC` — result for “6-mer enrichment (R)”: 0.677.
For `AUGUAA`, “6-mer enrichment (R)” read 0.701.
`GCGAGU` — result for “6-mer enrichment (R)”: 1.48.
`CAUCUA`: “6-mer enrichment (R)” 0.553.
Under “6-mer enrichment (R)”, `CGGUGG` is recorded as 3.2.
`UGGAAG` — result for “6-mer enrichment (R)”: 1.59.
Under “6-mer enrichment (R)”, `ACGUGA` is recorded as 0.813.
`UCUGCU` — result for “6-mer enrichment (R)”: 0.597.
For `CACAGA`, “6-mer enrichment (R)” read 0.707.
`UAGCUU` — result for “6-mer enrichment (R)”: 0.587.
Under “6-mer enrichment (R)”, `AUGGGC` is recorded as 1.98.
`CGUACG` — result for “6-mer enrichment (R)”: 0.862.
`CCCGCG` — result for “6-mer enrichment (R)”: 0.82.
Under “6-mer enrichment (R)”, `CAGAGA` is recorded as 0.885.
`GCCGUU`: “6-mer enrichment (R)” 0.762.
Under “6-mer enrichment (R)”, `CGGAUU` is recorded as 0.715.
Under “6-mer enrichment (R)”, `UGGAUG` is recorded as 1.46.
`CUGGUA` — result for “6-mer enrichment (R)”: 0.76.
`GCCGUA` — result for “6-mer enrichment (R)”: 0.819.
`UGCGUC` — result for “6-mer enrichment (R)”: 0.807.
For `UGAUUA`, “6-mer enrichment (R)” read 0.598.

Some of these lines once more (set 3):
`TGTACGAAGCTATTGCGTGCTGATATAGTAGTTAGG` gave a fluorescence intensity of 544 a.u.
`CTATTGATAATTTGGCATGTGCGATCTCTTCGATTC` has a fluorescence intensity of 685 a.u.
The fluorescence intensity of `CTATGAGCTCACTGTGACGTCGATGCATGCGCGTTC` is reported as 508 a.u.
`GAATAACGACCAGATCATGTCAAACCTACGGTTTAG` has a fluorescence intensity of 494 a.u.
The fluorescence intensity of `CTAACCACATAATTCCACGTTGGCGGCATCACTTTC` is reported as 535 a.u.
For `GAAGGATAAATGACGTGGGTGATCCACTGTCAATAG`, the fluorescence intensity was 507 a.u.
With `GAAAGGTATAGGCGTGATGCCATGGGAGGGGCATAG` the fluorescence intensity was 667 a.u.
The fluorescence intensity of `GAAGAGCACACACGTGATGTGTCGTGAACTGTGTAG` is reported as 11300 a.u.
`GAAAAAATGATACTACATGTGCATGAAGTATTATAG` gave a fluorescence intensity of 608 a.u.
The fluorescence intensity of `GAACTTTAAAATTCAAACGTGGCGTTCTTTTTTTAG` is reported as 520 a.u.
For `CTAAGTTAGTTCTGCCACGCCATTTTAAGTCCATTC`, the fluorescence intensity was 559 a.u.
